Assay results from different studies.
Parts stem from different laboratories: compare values within a part only.
UniProt P51955, sequence (whole entry, looked up): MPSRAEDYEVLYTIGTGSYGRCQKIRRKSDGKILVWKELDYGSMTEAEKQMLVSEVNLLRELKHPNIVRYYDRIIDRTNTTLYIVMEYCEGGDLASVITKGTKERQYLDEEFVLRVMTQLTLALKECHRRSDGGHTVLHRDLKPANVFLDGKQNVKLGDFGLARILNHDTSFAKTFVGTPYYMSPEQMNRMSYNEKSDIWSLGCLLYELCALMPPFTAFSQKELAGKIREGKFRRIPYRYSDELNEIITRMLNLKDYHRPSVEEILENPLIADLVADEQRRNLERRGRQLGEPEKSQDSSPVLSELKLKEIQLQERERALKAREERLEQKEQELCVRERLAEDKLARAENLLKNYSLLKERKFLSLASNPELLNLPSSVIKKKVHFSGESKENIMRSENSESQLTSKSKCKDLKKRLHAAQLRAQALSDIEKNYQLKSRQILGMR
UniProt P51956, sequence (whole entry, looked up): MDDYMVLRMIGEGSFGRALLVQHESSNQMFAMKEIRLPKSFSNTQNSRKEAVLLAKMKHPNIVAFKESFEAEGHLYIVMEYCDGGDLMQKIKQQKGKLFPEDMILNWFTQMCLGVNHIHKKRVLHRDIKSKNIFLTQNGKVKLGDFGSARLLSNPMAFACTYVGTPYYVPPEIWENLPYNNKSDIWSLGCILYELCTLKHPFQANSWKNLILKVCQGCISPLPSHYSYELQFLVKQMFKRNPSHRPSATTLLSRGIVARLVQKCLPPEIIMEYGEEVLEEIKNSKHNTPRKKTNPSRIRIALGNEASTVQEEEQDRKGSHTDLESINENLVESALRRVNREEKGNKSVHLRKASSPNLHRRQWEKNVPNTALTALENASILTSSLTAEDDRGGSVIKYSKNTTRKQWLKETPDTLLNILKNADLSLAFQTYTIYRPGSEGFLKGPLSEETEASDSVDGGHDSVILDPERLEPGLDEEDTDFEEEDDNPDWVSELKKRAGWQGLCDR
UniProt P57078, sequence (whole entry, looked up): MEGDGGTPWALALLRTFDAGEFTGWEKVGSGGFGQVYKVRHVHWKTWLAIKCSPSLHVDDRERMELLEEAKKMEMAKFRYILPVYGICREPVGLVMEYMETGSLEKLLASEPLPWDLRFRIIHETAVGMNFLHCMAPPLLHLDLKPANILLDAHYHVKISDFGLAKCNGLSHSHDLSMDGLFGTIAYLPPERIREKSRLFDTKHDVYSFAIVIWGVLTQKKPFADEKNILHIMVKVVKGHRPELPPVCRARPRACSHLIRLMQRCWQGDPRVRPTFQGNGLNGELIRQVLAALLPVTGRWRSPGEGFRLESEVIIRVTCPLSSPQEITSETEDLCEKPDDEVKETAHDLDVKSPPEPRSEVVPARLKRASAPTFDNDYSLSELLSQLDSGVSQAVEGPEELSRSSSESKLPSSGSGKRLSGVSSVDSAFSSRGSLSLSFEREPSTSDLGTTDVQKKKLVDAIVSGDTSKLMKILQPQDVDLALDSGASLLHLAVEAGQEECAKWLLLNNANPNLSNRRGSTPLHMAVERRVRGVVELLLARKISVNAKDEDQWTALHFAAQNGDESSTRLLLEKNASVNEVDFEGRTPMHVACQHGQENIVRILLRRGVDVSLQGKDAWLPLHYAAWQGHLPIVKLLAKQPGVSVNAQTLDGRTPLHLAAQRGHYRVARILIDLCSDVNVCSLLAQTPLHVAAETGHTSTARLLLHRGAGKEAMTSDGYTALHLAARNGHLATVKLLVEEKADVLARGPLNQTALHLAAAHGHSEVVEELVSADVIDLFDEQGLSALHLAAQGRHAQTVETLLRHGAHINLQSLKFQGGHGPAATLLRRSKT
UniProt O75460, sequence (whole entry, looked up): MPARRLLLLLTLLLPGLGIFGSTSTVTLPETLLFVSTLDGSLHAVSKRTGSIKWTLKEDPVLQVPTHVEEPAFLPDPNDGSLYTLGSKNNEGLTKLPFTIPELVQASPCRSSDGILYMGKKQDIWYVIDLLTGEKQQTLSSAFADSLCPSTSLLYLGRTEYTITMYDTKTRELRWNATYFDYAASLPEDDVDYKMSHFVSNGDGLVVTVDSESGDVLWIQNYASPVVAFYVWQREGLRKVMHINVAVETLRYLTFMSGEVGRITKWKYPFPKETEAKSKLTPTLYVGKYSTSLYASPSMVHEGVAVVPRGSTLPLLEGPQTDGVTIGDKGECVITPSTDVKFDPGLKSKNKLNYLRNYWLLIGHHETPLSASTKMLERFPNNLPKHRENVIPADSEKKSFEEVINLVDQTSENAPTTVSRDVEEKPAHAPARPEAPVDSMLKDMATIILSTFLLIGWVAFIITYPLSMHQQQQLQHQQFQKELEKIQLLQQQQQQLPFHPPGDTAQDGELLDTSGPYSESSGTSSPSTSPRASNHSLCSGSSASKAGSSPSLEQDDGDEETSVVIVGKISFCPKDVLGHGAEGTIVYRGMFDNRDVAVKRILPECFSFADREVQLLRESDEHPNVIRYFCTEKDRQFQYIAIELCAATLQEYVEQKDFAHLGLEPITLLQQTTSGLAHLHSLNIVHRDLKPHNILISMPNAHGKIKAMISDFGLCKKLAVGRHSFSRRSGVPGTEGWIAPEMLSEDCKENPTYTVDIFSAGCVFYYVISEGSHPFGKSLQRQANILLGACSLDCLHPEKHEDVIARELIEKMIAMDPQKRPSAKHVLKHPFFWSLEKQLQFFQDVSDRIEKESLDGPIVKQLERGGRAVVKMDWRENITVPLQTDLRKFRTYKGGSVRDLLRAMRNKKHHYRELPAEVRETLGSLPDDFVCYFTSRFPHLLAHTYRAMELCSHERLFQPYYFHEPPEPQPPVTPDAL
UniProt O95835, sequence (whole entry, looked up): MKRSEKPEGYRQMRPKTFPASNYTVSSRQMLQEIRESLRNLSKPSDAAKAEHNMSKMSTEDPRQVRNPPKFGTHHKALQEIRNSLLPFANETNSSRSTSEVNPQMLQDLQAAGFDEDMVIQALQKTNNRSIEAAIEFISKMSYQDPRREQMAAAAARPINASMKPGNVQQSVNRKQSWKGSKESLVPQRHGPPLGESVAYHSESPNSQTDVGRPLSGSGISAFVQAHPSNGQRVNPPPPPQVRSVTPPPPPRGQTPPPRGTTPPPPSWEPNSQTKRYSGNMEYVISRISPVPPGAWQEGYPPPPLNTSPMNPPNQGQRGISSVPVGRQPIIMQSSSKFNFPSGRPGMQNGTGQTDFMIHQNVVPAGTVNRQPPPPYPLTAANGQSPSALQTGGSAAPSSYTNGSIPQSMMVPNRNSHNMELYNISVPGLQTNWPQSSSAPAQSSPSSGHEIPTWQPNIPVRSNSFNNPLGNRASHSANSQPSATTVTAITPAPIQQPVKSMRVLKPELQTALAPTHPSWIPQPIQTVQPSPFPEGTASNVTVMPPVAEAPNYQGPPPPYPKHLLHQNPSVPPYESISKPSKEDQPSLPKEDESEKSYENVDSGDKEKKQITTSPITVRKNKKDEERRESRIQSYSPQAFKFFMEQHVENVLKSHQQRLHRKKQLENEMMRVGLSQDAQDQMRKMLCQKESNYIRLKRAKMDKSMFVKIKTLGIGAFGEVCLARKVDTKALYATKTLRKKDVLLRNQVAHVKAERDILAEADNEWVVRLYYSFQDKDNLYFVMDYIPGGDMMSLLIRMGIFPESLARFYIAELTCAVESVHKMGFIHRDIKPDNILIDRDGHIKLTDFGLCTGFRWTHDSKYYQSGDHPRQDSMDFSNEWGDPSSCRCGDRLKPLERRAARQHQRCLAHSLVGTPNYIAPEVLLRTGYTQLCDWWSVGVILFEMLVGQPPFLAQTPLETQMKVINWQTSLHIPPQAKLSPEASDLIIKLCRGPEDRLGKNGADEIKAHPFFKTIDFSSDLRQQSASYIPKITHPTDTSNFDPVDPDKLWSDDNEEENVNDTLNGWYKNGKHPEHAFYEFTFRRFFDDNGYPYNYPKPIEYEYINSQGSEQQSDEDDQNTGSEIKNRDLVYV

Study 1
Target: cGMP-dependent protein kinase 1, isoform beta (PRKG1, Homo sapiens, UniProt Q13976)
UniProt Q13976, sequence (whole entry, looked up): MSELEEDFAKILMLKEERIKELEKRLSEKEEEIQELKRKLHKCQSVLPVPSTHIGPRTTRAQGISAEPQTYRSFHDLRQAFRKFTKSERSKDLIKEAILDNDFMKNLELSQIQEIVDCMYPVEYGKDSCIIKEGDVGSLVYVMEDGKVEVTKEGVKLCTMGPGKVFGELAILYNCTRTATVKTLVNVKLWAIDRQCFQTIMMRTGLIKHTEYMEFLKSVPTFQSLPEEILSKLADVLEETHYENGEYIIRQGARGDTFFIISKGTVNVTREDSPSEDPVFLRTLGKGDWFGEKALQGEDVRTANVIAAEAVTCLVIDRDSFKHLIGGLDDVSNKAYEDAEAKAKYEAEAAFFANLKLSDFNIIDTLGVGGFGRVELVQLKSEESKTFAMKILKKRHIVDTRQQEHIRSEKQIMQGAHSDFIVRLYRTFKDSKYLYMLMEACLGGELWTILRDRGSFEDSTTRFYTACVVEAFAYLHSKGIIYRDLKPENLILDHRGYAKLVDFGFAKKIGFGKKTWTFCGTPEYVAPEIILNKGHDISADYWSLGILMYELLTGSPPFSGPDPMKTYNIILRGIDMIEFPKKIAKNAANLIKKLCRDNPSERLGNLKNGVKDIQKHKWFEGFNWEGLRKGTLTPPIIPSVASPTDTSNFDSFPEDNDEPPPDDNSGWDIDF
Observed: enzyme activity
Mode: inhibitor
Tested at: 0.5 µM
Relative to: control
Quantity: remaining activity
C#Cc1cccc(Nc2ncnc3cc(OCCOC)c(OCCOC)cc23)c1: 93.5%
O=C1NC(=O)C(c2cn(CCCn3ccnc3)c3ccccc23)=C1Nc1ccccc1: 88.8%
COc1cc2ncnc(Nc3ccc(F)c(Cl)c3)c2cc1OCCCN1CCOCC1: 103%
COc1cc2nccc(Oc3ccc(NC(=S)NC(=O)c4ccccc4C)cc3)c2cc1OC: 101%
CC(C)[C@H](CO)Nc1nc(Nc2cc(N)cc(Cl)c2)c2ncn(C(C)C)c2n1: 102%
CN(C)c1ccc(C=C2C(=O)Nc3ccccc32)cc1: 86.9%
Nc1[nH]nc2nc3ccccc3nc12: 93%
Oc1ccc(-c2nc(-c3ccncc3)c(-c3ccc(F)cc3)[nH]2)cc1: 87%
COc1cc2ncnc(Nc3ccc(Oc4ccccc4)cc3)c2cc1OC: 93.6%
Cc1ccc(Nc2nccc(N(C)c3ccc4c(C)n(C)nc4c3)n2)cc1S(N)(=O)=O: 103%
Cn1c2ccccc2c2c3c(c4c5ccccc5n(CCC#N)c4c21)CNC3=O: 84.3%
O=C(O)c1ccc2c3c1cccc3c(=O)n1c3ccccc3nc21: 95.1%
Nc1ccc2ncnc(NCCc3ccc(Oc4ccccc4)cc3)c2c1: 94.5%
CO[C@H]1C[C@@H]2CC[C@@H](C)[C@@](O)(O2)C(=O)C(=O)N2CCCC[C@H]2C(=O)O[C@H]([C@H](C)C[C@@H]2CC[C@@H](O)[C@H](OC)C2)CC(=O)[C@H](C)/C=C(\C)[C@@H](O)[C@@H](OC)C(=O)[C@H](C)C[C@H](C)/C=C/C=C/C=C/1C: 91%
COc1ccc(C(=O)Nc2sc3c(c2C(N)=O)CCCC3)cc1OC: 87.5%
N#CCCc1ccc2c(c1)-c1[nH]c3ccc([N+](=O)[O-])cc3c1CC(=O)N2: 88.4%
OCC(O)CCON=C1C(c2c(O)[nH]c3ccccc23)=Nc2ccccc21 (stereo not shown): 53%

Study 2
Cell line: Huh-7
Tested at: 10 µM
Time: 24 h
Quantity: viability
C/C=C(/C(=C/C)c1ccc(O)cc1)c1ccc(O)cc1: 95.8%
CCCCOc1ccc(OCCCN2CCOCC2)cc1: 96.1%
Clc1cccc(Cl)c1N=C1NCCN1: 102%
C=C1C[C@H]2[C@@H]3C=C(C)C4=CC(=O)CC[C@]4(C)[C@H]3CC[C@]2(C)[C@@]1(OC(C)=O)C(C)=O: 80%
Cc1cn[nH]c1: 102%
C[C@]12C=CC(=O)C=C1CC[C@H]1[C@@H]3C[C@@H](O)[C@](O)(C(=O)CO)[C@@]3(C)C[C@H](O)[C@@]12F: 102%
Oc1c(Cl)cc(Cl)c2cccnc12: 94.3%

Study 3
Structure (SMILES): CC(C)n1cnc(-c2ccc(F)cc2)c1-c1ncc(C(=O)Nc2ccc(N3CCN(C)CC3)cc2)[nH]1
Method: Phase 2a trial
Host: idiopathic pulmonary fibrosis patients
Quantity: patients with adverse events
refers to: neutrophil count increased; 30 mg once daily, grade 4 maximum intensity: 0%
refers to: blood bilirubin increased; dose not given, grade 4 maximum intensity, all arms: 0%
refers to: blood bilirubin increased; 60 mg once daily, grade 3 maximum intensity: 0%
refers to: urinary tract infection; 60 mg once daily, grade 3 maximum intensity: 0%
refers to: gamma-glutamyltransferase increased; dose not given, grade 5 maximum intensity, all arms: 0%
refers to: blood bilirubin increased; dose not given, grade 5 maximum intensity, all arms: 0%
refers to: blood creatine phosphokinase increased; 60 mg once daily, grade 5 maximum intensity: 0%

Study 4
Compound: CNCc1ccccc1-c1csc([C@H](C)Nc2nc(C)nc3cc(OC)c(OC)cc23)c1
Observed: cell-free assay
Method: competition with immobilised ligand
Tested at: 1 µM
Quantity: remaining binding
RIPK4 (Homo sapiens, UniProt P57078): 75%
NEK2 (Homo sapiens, UniProt P51955): 92%
NEK3 (Homo sapiens, UniProt P51956): 87%
LATS1 (Homo sapiens, UniProt O95835): 100%
EGFR (Homo sapiens, UniProt P00533, del747-750/T751S): 64%
ERN1 (Homo sapiens, UniProt O75460): 100%
